Experimental data pooled from the literature.
Numbered parts are unrelated; each lists some results of a single study. Changes are numbered by the printed parent chain.

Study 1
Target: ABI1, truncated, D143A, DHFR fusion (Arabidopsis thaliana)
Technique: DHFR PCA, deep sequencing
Medium: yeast
Notes: methotrexate growth selection, single substitutions
Added: (+)-ABA 58 µM
Relative to: wild-type fitted maximum
Reading: higher = stronger binding
Parent: PYL1, truncated, DHFR fusion (Arabidopsis thaliana); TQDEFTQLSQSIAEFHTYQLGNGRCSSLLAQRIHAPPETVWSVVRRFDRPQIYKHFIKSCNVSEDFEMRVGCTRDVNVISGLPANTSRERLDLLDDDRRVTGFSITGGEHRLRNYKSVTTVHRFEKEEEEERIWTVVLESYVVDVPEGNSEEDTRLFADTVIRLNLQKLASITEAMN
Change | relative binding score
F15V | 39.8%
R99H | 95%
S9K | 102%
N61I | 84.2%
N165L | 1.52%
P83V | 5.59%
Y18G | 57.8%
N77R | 94%
E109I | 72.6%
S87N | 4.63%
L82S | 5.02%
E139L | 56%
T135H | -13.4%
G107Q | 53.5%
T135P | 6.78%
R74M | -24.3%
V118A | 42.3%
R155N | 64.1%
G102Q | 38.1%
S104C | 53.1%
S27L | 6.22%
Q2A | 92%

Study 2
Target: UBE2Z UBC core domain (UniProt Q9H832)
Technique: yeast two-hybrid
Medium: yeast
Notes: mostly zero background
Relative to: not given
Reading: higher = stronger interaction
B1: TRIM5 RING domain (UniProt Q9C035); chain ILVNVKEEVTCPICLELLTQPLSLDCGHSFCQACLTANHKKSMLDKGESSCPVCRISYQPENIRP
B2: TRIM4 RING domain (UniProt Q9C037); chain EAEDIQEELTCPICLDYFQDPVSIECGHNFCRGCLHRNWAPGGGPFPCPECRHPSAPAALRP
B3: TRIML1 RING domain (UniProt Q8N9V2); chain LMENLREELTCFICLDYFSSPVTTECGHSFCLVCLLRSWEEHNTPLSCPECWRTLEGPHFQS
B4: RNF38 RING domain (UniProt Q9H0F5); chain PNNHQSEQTLCVVCMCDFESRQLLRVLPCNHEFHAKCVDKWLKANRTCPICRADASEVHRDS
B5: TRIM24 RING domain (UniProt O15164); chain EAARLNLLDTCAVCHQNIQSRAPKLLPCLHSFCQRCLPAPQRYLMLPAPMLGSAETPPPVPAPGSPVSGSSPFATQVGVIRCPVCSQECAERHII
B6: RC3H1 RING domain (UniProt Q5TC82); chain QAPQWTDFLSCPICTQTFDETIRKPISLGCGHTVCKMCLNKLHRKACPFDQTTINTDIELL
B7: NEURL1 RING domain (UniProt O76050); chain VTPGLGQWSDECTICYEHAVDTVIYTCGHMCLCYACGLRLKKALHACCPICRRPIKDIIKT
B8: DTX4 RING domain (UniProt Q9Y2E6); chain QKVRHPPDEDCTICMERLTAPSGYKGPQPTVKPDLVGKLSRCGHVYHIYCLVAMYNNGNKDGSLQCPTCKTIYGVKTGTQ
B9: TRIM5 RING domain (UniProt Q9C035); chain LREVKLSPEGQKVDHCARHGEKLLLFCQEDGKVICWLCERSQEHRGHHTFLTEEVAREYQVKL
B10: VPS41 RING domain (UniProt P49754); chain KGVLVDEENICESCLSPILPSDAAKPFSVVVFHCRHMFHKECLPMPSMNSAAQFCNICSAKNRGPGSAI
Construct (chain): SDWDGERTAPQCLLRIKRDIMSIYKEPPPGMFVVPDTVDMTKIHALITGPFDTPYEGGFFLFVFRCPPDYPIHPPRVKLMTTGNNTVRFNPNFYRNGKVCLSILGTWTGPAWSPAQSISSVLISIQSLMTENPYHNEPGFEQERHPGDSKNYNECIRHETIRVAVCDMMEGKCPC
Sequence | lacZ reporter activity
B1 (TRIM5 RING domain) | 0
B2 (TRIM4 RING domain) | 0
B3 (TRIML1 RING domain) | 0
B4 (RNF38 RING domain) | 0
B5 (TRIM24 RING domain) | 0
B6 (RC3H1 RING domain) | 0
B7 (NEURL1 RING domain) | 8730
B8 (DTX4 RING domain) | 0
DHGAVGQEMCCPICCSEYVKGEVATELPCHHYFHKPCVSIWLQKSGTCPVCRCMFPPPL (PJA1 RING domain (UniProt Q8NG27)) | 2570
B9 (TRIM5 RING domain) | 0
GAAPGPEAAECLVCSELALLVLFSPCQHRTVCEECARRMKKCIRCQVVVSKKLRPD (MIB2 RING domain (UniProt Q96AX9)) | 0
MPIRALCTICSDFFDHSRDVAAIHCGHTFHLQCLIQWFETAPSRTCPQCRIQVGKRTIIN (TRAIP RING domain (UniProt Q9BWF2)) | 0
B10 (VPS41 RING domain) | 0

Study 3
Target: Histone acetyltransferase KAT6A, winged helix 1, GST fusion (KAT6A, Homo sapiens, UniProt Q92794, residues 1-85)
Technique: protein binding microarray
Form: double-stranded DNA, one strand shown
Medium: in vitro
Tested at: not given
Notes: 8-mer, flanks averaged, mean of 2 arrays, mostly near background
Relative to: not given
Reading: higher = stronger binding
Residues (chain): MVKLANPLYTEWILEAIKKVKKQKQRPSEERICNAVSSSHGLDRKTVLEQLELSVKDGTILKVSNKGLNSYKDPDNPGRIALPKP
Oligonucleotide | E-score
ATCTTTAA | -0.0361
ATTTTCTA | -0.319
GGTGGAGA | -0.073
GCAGTGTA | -0.0804
CCGGCATA | 0.338
AACTACGA | -0.0646
ACCGGAGG | 0.119
TATAGCAA | -0.0033
TAGGGCGA | -0.105
CTCGATTA | -0.156
ATTAAACG | -0.0841
CCATATTA | -0.16
CCCAATTC | -0.296
GGGTTACA | 0.1
TCACAGAA | -0.177
GTCGGGTA | 0.222
GCCTTACA | -0.125
CAAATACC | -0.04
ATCACAAC | -0.0227
CCTCAATA | 0.00892
GACCAGCA | -0.111
AGGCGCGG | 0.375
ATTCTAGC | -0.235
TGAAAACA | 0.015
AAGTTTGT | -0.209

Study 4
Organism: Saccharomyces cerevisiae
Observed: binding
Technique: yeast competitive growth sequencing
Form: peptide
Strain: cyclin A1-Cln2 strain
Medium: peptide tiling library
Notes: pooled screen
Reading: direction not given
Sequence | enrichment score
RSLKLDGLLEEN | -0.997
PLRKAKRARLCSSSSS | 1.6
PFSENVSAVQKLDFSD | 1.54
TSSAQRRLEIPSGGAD | -0.178
RVSGLLSWTLSRVLWL | 0.0145
IQKKLRFEDTLEFVGF | -1.05
AGSAKRRLFGEDPPKE | 1

Some of these lines once more (study 3):
Oligonucleotide | E-score
GGGTTACA | 0.1
TCACAGAA | -0.177
GTCGGGTA | 0.222
GCCTTACA | -0.125
CAAATACC | -0.04
ATCACAAC | -0.0227
CCTCAATA | 0.00892
GACCAGCA | -0.111
AGGCGCGG | 0.375
